Measurements from different studies.
A part holds a random share of what one study measured.

Set 1
Target: Interferon regulatory factor 7, full length, phosphomimetic (IRF7, Homo sapiens, UniProt Q92985, residues 1-503, S101K/S471D/S472D/S475D/S476D/S477D/S483D/S484D/S487D)
Method: protein-binding microarray
Molecule type: double-stranded DNA, one strand shown
Matrix: in vitro
Concentration: 250 nM
Notes: 60-bp whole probe
With: salmon DNA 0.4 mg/ml
Reference: random background probes
Reading: higher = stronger binding
Measurement: log fluorescence
All sequences stand within: GCCTAGCAC … GTCTTGATTCGCTTGACGCTGCTG
Residues (chain): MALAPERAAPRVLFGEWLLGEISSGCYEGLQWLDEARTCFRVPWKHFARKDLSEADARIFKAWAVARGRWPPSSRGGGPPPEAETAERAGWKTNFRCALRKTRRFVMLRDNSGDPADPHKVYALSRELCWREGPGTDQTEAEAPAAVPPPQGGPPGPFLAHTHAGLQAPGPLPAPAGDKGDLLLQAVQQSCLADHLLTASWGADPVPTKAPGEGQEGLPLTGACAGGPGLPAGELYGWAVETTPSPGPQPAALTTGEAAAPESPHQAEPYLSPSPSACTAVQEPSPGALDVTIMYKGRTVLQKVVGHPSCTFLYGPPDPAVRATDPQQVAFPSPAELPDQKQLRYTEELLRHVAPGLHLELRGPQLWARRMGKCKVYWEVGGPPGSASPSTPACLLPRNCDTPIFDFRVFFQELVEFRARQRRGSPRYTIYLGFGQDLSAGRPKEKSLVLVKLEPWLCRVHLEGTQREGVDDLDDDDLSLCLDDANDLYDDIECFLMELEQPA
TTAGGTATCGGTCTCGGTTCGTGCTAG: 4.29 z-score
TCACATCTCCAAAGTCAGACTGTGCTA: 0.509 z-score
GACGGTACCGGGTATCGGGACGTGCTA: -0.0908 z-score
TGATCTTCCTTCATGGCCTGGTGCTAG: 0.552 z-score
GACGGTTTCGACTTTCGCGACGTGCTA: 10.3 z-score
GACGAACTGAGCATCGAGACGTGCTAG: -0.434 z-score
GTAGGTTCCCTTTTCCTTTAGTGCTAG: 3.4 z-score
TTAGGTATCGGGTTTCGCTTAGTGCTA: 5.51 z-score
TGAGATTTCCATTATTGCTTGTGCTAG: 0.0477 z-score
ACAGGTTCTCTTTTATTTTTGTGCTAG: 2.29 z-score
GACGGTGTCCTACTGCTGACGTGCTAG: -0.45 z-score
TTCGGTTTCCTTTCCCTTTAGTGCTAG: 5.93 z-score
GACGATCTCAGTTTCGAGGCGTGCTAG: 2.21 z-score
TACGGACTGGGTATCGGGACGTGCTAG: -0.164 z-score
GACGGTTTCCTTATCGTGACGTGCTAG: 2.81 z-score
TCAGGTTTCCAATCAGCACTGTGCTAG: 3.58 z-score
TTAGATATCAATCTCGATTAGTGCTAG: 0.312 z-score

Set 2
Target: Histone acetyltransferase KAT6A, both winged helices, GST fusion (KAT6A, Homo sapiens, UniProt Q92794, residues 1-181)
Method: protein binding microarray
Molecule type: double-stranded DNA, one strand shown
Matrix: in vitro
Concentration: not given
Notes: 8-mer, flanks averaged, mean of 2 arrays, mostly near background
Reference: not given
Reading: higher = stronger binding
Measurement: E-score
Target sequence (chain): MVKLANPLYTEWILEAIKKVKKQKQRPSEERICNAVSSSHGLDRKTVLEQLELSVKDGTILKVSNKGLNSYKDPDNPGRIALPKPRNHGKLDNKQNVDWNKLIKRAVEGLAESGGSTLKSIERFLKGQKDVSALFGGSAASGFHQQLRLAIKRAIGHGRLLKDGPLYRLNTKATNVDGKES
CCACGGCC: 0.132
GGTACCAC: -0.204
GGGTCAAA: -0.0145
CGTGAGTC: 0.0821
TCCTAGCA: -0.0299
CAATTGTA: -0.0631
ATCGGGGC: 0.145
ACGATGAG: 0.0666
ACGGAGCT: 0.115
AGCGGATG: 0.176
CATACAAG: -0.0501
GTTCCAGA: -0.0653
AGAAAATC: -0.0684
ACATTTTA: 0.104
CGATGATC: 0.0393
GCGACACA: 0.0437
CTACGTAG: 0.135
GAGCGAAC: -0.0277
CAACTGGC: -0.142

Set 3
Target: RING finger protein unkempt homolog, zinc fingers 1-6, GST-SBP tag (UNK, Homo sapiens, UniProt Q9C0B0, residues 30-357)
Sequence of UniProt Q9C0B0 (30-357, looked up): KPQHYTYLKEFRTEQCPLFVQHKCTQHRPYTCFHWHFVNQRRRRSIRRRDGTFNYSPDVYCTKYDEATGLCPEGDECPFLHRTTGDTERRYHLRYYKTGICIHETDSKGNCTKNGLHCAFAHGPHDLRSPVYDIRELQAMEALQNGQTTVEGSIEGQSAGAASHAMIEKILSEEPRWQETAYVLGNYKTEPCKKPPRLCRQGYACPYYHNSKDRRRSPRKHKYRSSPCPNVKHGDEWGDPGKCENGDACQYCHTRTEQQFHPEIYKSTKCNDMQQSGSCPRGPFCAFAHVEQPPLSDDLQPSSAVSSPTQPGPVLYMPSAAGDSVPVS
Method: RNA Bind-n-Seq
Molecule type: RNA
Matrix: in vitro
Concentration: not given
Notes: RNA with constant flanks, human and mouse sites, ends assumed
Reference: input RNA pool
Reading: higher = stronger binding
Measurement: bound/input enrichment
All sequences stand within: GGGAGUUCUACAGUCCGACGAUC … CAACAGAGGAUUGAGCAUCA
CUCCAAGUUCGAAGCAUUCAGCAAACAAUGGCAAGGCAGAGCCACCAGAAACGUACACCUGAUUUUCAUGACAAAUACGGUAAUGCUGUAUUAGCUAGUGGAGCCACUUUCUGUAUUGUU: 0.181 ratio
CAGUGGGGGAACUCUGCCGGUAACCAGCUCCCCUUCUUGCAGGAGGGAGGGAGAAACAUACAUUUAUUCAUGCCGGUCUGUUGCAUGCAAGCUUCUUGGCUUCCUACCUUGCAACAAAAU: 0.132 ratio
GAGGAUCCGGAACUGGCUAAGUCUUUUAUUAAGACAUUAUUUGGUGUUCUUUAUGAAGUGUAUAGUUCCUCAGCAGGACCUGCGGUCAGACAUAAGUGCCUUAGAGCAAUUCUUAGGAUA: 0.516 ratio
AUUAAUAGGUAUAAGGAUUUUUCUUAUUAAUCUAAUAAAAUUCCUUAAUAGGAAUUUCCAUAGCUUAAGAGUGGUUUAUUUUAUCUGCAUCUUCUUUGGUGAUUGCAAAUCCCUUGUGAU: 0.883 ratio
GAUUGUCAAGUGGGGAACACGACAGACUUCUGUUCCGUUUCCACGGCCACUCCAGUGCCAACAGCCAAUUCUACAGCUAAACCCACAGUUCAGCCCUCCCCUUCUACAACUUCCAAGACA: 0.293 ratio
CAGGUACAGGAACAGAAGGCACAUCUUCGAGCUGCACAAGACCGUGUUCUUUCUCUGGAAACCAGUGUCAGUGAACUAAGCAGUCAGUUAAAUGAAAGCAAGGAGAAGGUCUCGCAGCUU: 0.154 ratio

Set 4
Target: TAR DNA-binding protein 43, full length, His tag (TARDBP, Homo sapiens, UniProt Q13148, residues 1-414)
Method: RNA Bind-n-Seq
Molecule type: RNA
Matrix: in vitro
Concentration: 20 nM
Notes: 6-mer, flanks averaged, single round
With: 150 mM LiCl
Reference: input library
Reading: higher = stronger binding
Measurement: 6-mer enrichment (R)
AAGAAG: 0.993
UCCCGA: 0.912
UAAGAC: 0.823
GGCUGC: 1.03
AGUUGC: 0.99
ACACAG: 0.837
CUAUGU: 1.02
UUUACA: 0.954
CAACAA: 0.927
GUUGAU: 1.08
UCUACA: 0.83
CCGGAA: 0.869
UAAGAG: 1.02

Set 5
Target: Ras GTPase-activating protein-binding protein 1, C-terminal RGG region (G3BP1, Homo sapiens, UniProt Q13283)
Sequence of UniProt Q13283 (whole entry, looked up): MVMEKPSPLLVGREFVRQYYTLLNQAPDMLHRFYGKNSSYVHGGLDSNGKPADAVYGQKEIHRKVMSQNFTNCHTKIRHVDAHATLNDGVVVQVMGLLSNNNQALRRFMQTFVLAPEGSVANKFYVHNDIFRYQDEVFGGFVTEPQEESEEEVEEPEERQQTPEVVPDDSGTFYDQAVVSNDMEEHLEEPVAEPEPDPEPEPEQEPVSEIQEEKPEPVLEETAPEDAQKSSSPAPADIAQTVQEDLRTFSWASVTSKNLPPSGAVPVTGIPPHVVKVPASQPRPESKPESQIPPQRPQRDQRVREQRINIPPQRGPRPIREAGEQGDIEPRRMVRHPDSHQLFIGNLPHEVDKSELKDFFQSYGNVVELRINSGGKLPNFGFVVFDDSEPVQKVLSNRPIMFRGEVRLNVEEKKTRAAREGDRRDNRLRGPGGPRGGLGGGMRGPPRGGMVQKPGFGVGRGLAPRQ
Method: RNA Bind-n-Seq
Molecule type: RNA
Matrix: in vitro
Concentration: 1 µM
Notes: whole 134-nt RNA, ends assumed
With: 150 mM KCl
Reference: input library
Reading: higher = stronger binding
Measurement: log2 enrichment
All sequences stand within: GGGAGUUCUACAGUCCGACGAUC … UGGAAUUCUCGGGUGUCAAGG
UAACUUUAGAGGAGGAUCUGAUGGAUAUGGCAGUGGACGUGGAUUUGGGGAUGUCUAUAAUGGGUAUGGAGGAGGACCUGGAGGUGGCAA: -0.0898
UAUCCCCUAUGAGGCACCACGUAAGACCUCCUGCCCUUAGCUCUCUUGCUCACCACCCAAGAACCUCAGGACAGAAGCGAGAGCCCAUUG: -0.367
GCAGGAAGUAAAAACAAAUGGAAAUGCUUCGGAUAGUGGCAGGGGUGGGGGUUGCUAAGGAAAGGCUGGGAUGGGAGUGGGUAAAGAGUU: 1.54
CAAGUCCUGUGCUACACAUCGUAUGUACCGAAUCGGGGAAGGGGAAGGGGAAGGGGAAAGUAUUAUGUUACGCCGUUCGGAUCUGCACUU: 3.13
UCCUGUGCUACACAUCGUAUGUACCGAAUCGGGGAAAAAAGGAAAAAAGGGAAAAAAGGAAAGUAUUAUGUUACGCCGUUCGGAUCUGCA: -1.34
AAGUCCUGUGCUACACAUCGUAUGUACCGAAUCGGGGCCCGGGGCCCGGGGCCCGGGAAAGUAUUAUGUUACGCCGUUCGGAUCUGCACU: -2.63
CCUCAAGUCCUGUGCUACACAUCGUAUGUACCGAAUCGGGUGGGUGGGUGGGAAAGUAUUAUGUUACGCCGUUCGGAUCUGCACUUCCAG: 1.81
GGGGUGAGCACAGACAGGAUCGCAGGGAGAGGCCGUAUUAAUUAGCCUGGCUCCCCAGGUUCUGGAACAGCUUUUUGUCCUGUACCCAGU: 1.22
AGUCCUGUGCUACACAUCGUAUGUACCGAAUCGGGGUUUGGGGUUUGGGGAAAGGGGAAAGUAUUAUGUUACGCCGUUCGGAUCUGCACU: 3.88
UCAAGUCCUGUGCUACACAUCGUAUGUACCGAAUCGGGGUUGGUUGGGGUUGGGAAAGUAUUAUGUUACGCCGUUCGGAUCUGCACUUCC: 0.106

Set 6
Target: Prothrombin, mature alpha-thrombin (F2, Homo sapiens, UniProt P00734)
Method: aptamer microarray, sandwich
Molecule type: DNA with 2'F-ANA
Matrix: in vitro
Concentration: 200 nM
Notes: whole 15-mer aptamer, many near background
With: Cy3 exosite-II aptamer, 400 nM
Reading: higher = stronger binding
Measurement: mean fluorescence intensity
Strand: GGTTGGTGTGGTTGG
2'F-ANA at 1 2 3 4 5 10 12 13 14 15: 50.9 a.u.
2'F-ANA at 1 4 5 9 12 13 15: 62.3 a.u.
2'F-ANA at 2 3 5 6 7 9 10 13 15: 57.2 a.u.
2'F-ANA at 1 2 3 4 5 6 7 9 10 11 12 13 15: 50.1 a.u.
2'F-ANA at 2 3 4 5 7 8 10 12 14 15: 51.3 a.u.
2'F-ANA at 2 6 8 10 11 14 15: 122 a.u.
2'F-ANA at 2 4 5 6 7 10 11 15: 48.4 a.u.
2'F-ANA at 1 4 5 7 9 11 13 15: 48.6 a.u.
2'F-ANA at 5 7 9 10 12 13 15: 104 a.u.
2'F-ANA at 2 4 5 6 9 11 14 15: 47.5 a.u.
2'F-ANA at 2 8 12 15: 815 a.u.
2'F-ANA at 1 2 3 9 10 11 13 14 15: 54.2 a.u.
2'F-ANA at 1 2 3 5 7 8 9 10 12 15: 50.8 a.u.
2'F-ANA at 1 6 7 8 9 10 13 14: 53.6 a.u.
2'F-ANA at 1 2 3 5 6 7 8 10 11 12 14: 61.3 a.u.
2'F-ANA at 3 5 7 8 9 11 12 13 15: 175 a.u.
2'F-ANA at 3 6 7 10 11 12 14 15: 328 a.u.
2'F-ANA at 1 2 5 6 12 13 14: 49.5 a.u.
